Assay results of several laboratories.
Parts stem from different laboratories: compare values within a part only.

Sample 1 — technique: RNA Bind-n-Seq; form: RNA; sample: in vitro; tested at: 365 nM; baseline: no-protein control; direction: higher = stronger binding; endpoint: RBNS enrichment (R)
Target: RNA binding protein fox-1 homolog 2, RRM domain, GST-SBP tag (RBFOX2, Homo sapiens, UniProt O43251-10, residues 100-194)
Notes: natural RNA segment, single round, ends assumed
Target sequence (chain): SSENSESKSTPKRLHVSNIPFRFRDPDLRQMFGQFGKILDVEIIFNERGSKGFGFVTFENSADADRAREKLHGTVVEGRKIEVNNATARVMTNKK
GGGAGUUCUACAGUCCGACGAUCGGCUGUUUCAAAAAAAUCUAUUGACUUUUCAAUAAAUCAGCUGCAAUCCAUUUAUUUCAUUUACAAAAGAUUUAUUGUAAGCAUCUCAAUCUUGGUUUGUCAGUUUAUCUUGGAAUUCUCGGGUGCCAA: 0.61
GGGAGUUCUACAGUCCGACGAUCUGUCCCUCUCUGGCUUGGUCCCCUUCCUCCCUACUUUCUGUAAAUAUCUGUAUCUAAACCAGAAUAUUUUGGUCAAAUAUAAAACAAUAAUAAAAAAAGUUCUGAUGUCAUGGAAUUCUCGGGUGCCAA: 0.37
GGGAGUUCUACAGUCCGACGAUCCCAUGCAGAGCUACGAAAUCUGUGCUGAGAAAAUGCCAUCUGGAAAGAUUUUUAACCCAUUCAUUCUUAGUGUGAAUUUUCUAAAAUAGAAGUAUAAAAAAAAAGUCUCUUGGAAUUCUCGGGUGCCAA: 0.531
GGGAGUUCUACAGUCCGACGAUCACCCAUCUUUCCCUGCAGCUCACACCUACGCCCCAAAAGCAGUUCCCAAAGCAGUCAUGGUGCACAUCCUAACUUUGGGGUUGGCGGUGAGCCGGCCCCACUCUCUGGGUUGGAAUUCUCGGGUGCCAA: 0.306
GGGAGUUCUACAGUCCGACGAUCUUAAUAAGGAAUUUUAAUCUAGAAUUUUGAUCUUUGUAAAAAAAGGGGAAAAAGGGUAGUUUGUUUCAUACUUUUGGAAUUUUUUUUCAGUGAAAAAUAACUGAAGUUCAUGGAAUUCUCGGGUGCCAA: 0.897
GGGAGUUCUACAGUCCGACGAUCGGAGGCUGGAACCAUUUCUGGGCAUUGUGGUCAUUCCCACUGUGUUCCUCCACCUCCUCCCUCCAGCGUUGCUCAGACCUCUGUCUUGGGAGAAAGGUUGAGAUAAGAAUUGGAAUUCUCGGGUGCCAA: 0.489
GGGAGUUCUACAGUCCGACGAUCUUCCUUUAUUGUGCAUUUAUAUUUUCUGCUGAAUUCCGGUAGUUCCCUUUAAAGUCAUGUUGACUAAUGUUUUCCUCCUUGUUUGUAUUCAGAUUUCCAAAAUUUCACUCUGGAAUUCUCGGGUGCCAA: 1.86
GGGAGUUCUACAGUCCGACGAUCUGUGUAGCUCUAAGAACAUGAAGUAGCUGGUUGCAAGAUGGACCAACUCACCAAGUGUCAGCCCAGGUAGUGAGAAACUUGCAGUAGACAUGGAGCUGGGCUCUUUUAAAUGGAAUUCUCGGGUGCCAA: 0.958
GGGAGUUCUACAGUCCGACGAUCCAUCAGGCUGGGGGCUGUGCUAUGUGGGAUGGAUGUGUGAGGAACCCCGGUUCCACUUAACAACUAAAUACAACAUCUUUUGCACCCCUAGAAUGUCAUUUUGCCCUCAAUGGAAUUCUCGGGUGCCAA: 0.525
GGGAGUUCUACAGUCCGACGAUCAAGCAAUAUUUCCCUGGAAUUUAAUUCAAAGUUUGUGGCAUACAACCUGAGCCUUUUCUUAUAUAAGACAAGAAUAUGUUCACAUCUUGGUAUGUGGCCAUAUUUAUAGAUGGAAUUCUCGGGUGCCAA: 0.803
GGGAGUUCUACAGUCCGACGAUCUUUGGACAGCACAUAUGGUCCAUUGUGUACAAGUCAGUAAUCUGGAUUUCAGUACAUGGAUUUAAAAGGCAACAAUCCAUCACUGGUUUGUGUGUUUUUGGUUAAGUUUCUGGAAUUCUCGGGUGCCAA: 0.832
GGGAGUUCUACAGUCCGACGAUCAAGCCAAGUGGAAUGGAGCCGGCCAAGCUGAGCCUGACUUUUUUCAAUAAAACAUUGUGUACUUCUGGCCUCCUGCUGCUCCGGCUCUUUUUUCCCUGGCGCCAAGGGAAUGGAAUUCUCGGGUGCCAA: 0.248

Sample 2 — technique: protein binding microarray; form: double-stranded DNA, one strand shown; sample: in vitro; tested at: not given; baseline: not given; direction: higher = stronger binding; endpoint: E-score
Target: Histone acetyltransferase KAT6A, winged helix 1, GST fusion (KAT6A, Homo sapiens, UniProt Q92794, residues 1-85)
Notes: 8-mer, flanks averaged, mean of 2 arrays, mostly near background
Residues (chain): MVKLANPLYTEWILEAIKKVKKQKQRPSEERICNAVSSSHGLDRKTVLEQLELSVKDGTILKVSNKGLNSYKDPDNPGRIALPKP
CGCGGTCA: 0.354
CTGCACGA: -0.222
AAGGGTAT: -0.05
ACGGTCTA: 0.207
CTGTATAC: -0.0505
ATTGCGTC: 0.158
CCGTAGCC: 0.369
CCCTACAC: -0.0363
AGGTATGA: -0.136
CACAAGTA: -0.138
ACTTGCCG: 0.176
AGGCTTGA: -0.234
CAAACATC: -0.188
AACCGATA: 0.0862
AATAATAG: -0.169
CGTGGTCC: 0.167

Sample 3 — target: UBE2Q2 UBC core domain (UniProt Q8WVN8); technique: yeast two-hybrid; sample: yeast; notes: mostly zero background; baseline: not given; direction: higher = stronger interaction; endpoint: lacZ reporter activity
UniProt Q8WVN8, sequence (whole entry, looked up): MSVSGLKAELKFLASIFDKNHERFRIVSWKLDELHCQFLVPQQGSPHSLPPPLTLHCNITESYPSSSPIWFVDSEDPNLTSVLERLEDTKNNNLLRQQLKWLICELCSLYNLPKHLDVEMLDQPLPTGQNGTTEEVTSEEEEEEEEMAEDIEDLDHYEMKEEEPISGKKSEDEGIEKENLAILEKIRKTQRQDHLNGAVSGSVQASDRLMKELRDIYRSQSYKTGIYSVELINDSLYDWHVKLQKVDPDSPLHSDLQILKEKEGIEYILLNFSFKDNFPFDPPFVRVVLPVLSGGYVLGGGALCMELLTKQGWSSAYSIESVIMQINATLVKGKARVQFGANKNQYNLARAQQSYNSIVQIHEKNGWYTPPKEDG
B1: ZNRF4 RING domain (UniProt Q8WWF5); chain VRTFTWHNDLCAICLDEYEEGDQLKILPCSHTYHCKCIDPWFSQAPRRSCPVCKQSVAATEDSF
B2: HLTF RING domain (UniProt Q14527); chain LILSSGSDEECAICLDSLTVPVITHCAHVFCKPCICQVIQNEQPHAKCPLCRNDIHEDNLLE
B3: VPS8 RING domain (UniProt Q8N3P4); chain TRGLNPKQDYCSICLQQYKRRQEMADEIIVFSCGHLYHSFCLQNKECTVEFEGQTRWTCYKCSSSNKVGKLSE
B4: RNF6 RING domain (UniProt Q9Y252); chain NSIDSELGKICSVCISDYVTGNKLRQLPCMHEFHIHCIDRWLSENCTCPICRQPVLGSNIAN
B5: BFAR RING domain (UniProt Q9NZS9); chain GPQISVSEFSCHCCYDILVNPTTLNCGHSFCRHCLALWWASSKKTECPECREKWEGFPKVS
B6: RNF103 RING domain (UniProt O00237); chain WPADMLHCTECVVCLENFENGCLLMGLPCGHVFHQNCIVMWLAGGRHCCPVCRWPSYKKKQPY
B7: RNF186 RING domain (UniProt Q9NXI6); chain HSGSTECDLECLVCREPYSCPRLPKLLACQHAFCAICLKLLLCVQDNTWSITCPLCRKVTAVPGGLI
B8: MARCHF1 RING domain (UniProt Q8TCQ1); chain TAPRSQSRLSVCPSTQDICRICHCEGDEESPLITPCRCTGTLRFVHQSCLHQWIKSSDTRCCELCKYDFIMETKLKPLRKWE
B9: TRIM41 RING domain (UniProt Q8WV44); chain PVQTLQEEAVCAICLDYFTDPVSIGCGHNFCRVCVTQLWGGEDEEDRDELDREEEEEDGEEE
B10: RUFY1 RING domain (UniProt Q96T51); chain QALKGHAWLKDDEATHCRQCEKEFSISRRKHHCRNCGHIFCNTCSSNELALPSYPKPVRVCDSCHTLLLQRCSSTAS
B11: TRIM11 RING domain (UniProt Q96F44); chain LSTNLQEEATCAICLDYFTDPVMTDCGHNFCRECIRRCWGQPEGPYACPECRELSPQRNLRP
B1 (ZNRF4 RING domain): 0
FAEQPSVKLCCQLCCSVFKDPVITTCGHTFCRRCALKSEKCPVDNVKLTVVVNNI (TRAF7 RING domain (UniProt Q6Q0C0)): 0
B2 (HLTF RING domain): 0
B3 (VPS8 RING domain): 0
B4 (RNF6 RING domain): 0
B5 (BFAR RING domain): 0
B6 (RNF103 RING domain): 0
B7 (RNF186 RING domain): 0
B8 (MARCHF1 RING domain): 0
B9 (TRIM41 RING domain): 0
B10 (RUFY1 RING domain): 0
B11 (TRIM11 RING domain): 0

Sample 4 — technique: universal PBM; form: double-stranded DNA, one strand shown; sample: in vitro; tested at: not given; direction: higher = stronger binding; endpoint: E-score
Target: Sal-like protein 4, full length isoform B (SALL4, Homo sapiens, UniProt Q9UJQ4-2, residues 1-616)
Notes: 8-mer, flanks averaged, mean of replicates
GCGAGACC: -0.14
CGAGCAAG: -0.24
CTCATTGA: -0.0409
CGATTTTC: 0.0893
ATACCGAC: -0.0881
AACCCACT: -0.104
ACAGTTTG: 0.0255
ATGGTGCG: -0.0595
GAGTTTCC: -0.0175
CCGGGGCC: -0.385
TCCAGCAA: 0.103
AGATAGAA: 0.108
GGTGACTA: -0.0539
CAGGAAGA: -0.166
GGCAGTAC: 0.00146
GACTTAGC: -0.113
CATGAACA: 0.15
ACTAAAAA: 0.27
CCCGCAAA: -0.0475
AGCAACAG: 0.0214
CTTGTTGA: -0.0399
AAAGTGCC: -0.14

Excerpt of the above (sample 2):
CTGTATAC: -0.0505
ATTGCGTC: 0.158
CCGTAGCC: 0.369
CCCTACAC: -0.0363
AGGTATGA: -0.136
CACAAGTA: -0.138
ACTTGCCG: 0.176
AGGCTTGA: -0.234
CAAACATC: -0.188
